{"data": "Results gathered from unrelated publications", "note": "Lines come from different studies, so protocols differ. Numbers after ± are the reported error."}
{"Compound": "C[N+](C)(CCOCCOCCOCCNC(=S)Nc1ccc(C[C@H]2CN(CC(=O)[O-])CCN(CC(=O)[O-])CCN2CC(=O)[O-])cc1)C[c-]1cccc1.[64Cu+2].[Fe+2].c1cc[cH-]c1", "test": "item: large intestine", "test system": "nude mice, BxPC-3 tumour", "conditions": "24 h post injection, pretargeting, 72 h lag", "tissue uptake": "0.1 %ID/g"}
{"Compound": "CC(=O)N([O-])CCCCCNC(=O)CCC(=O)N([O-])CCCCCNC(=O)CCC(=O)N([O-])CCCCCN.[89Zr+4]", "test": "gamma counting", "test system": "healthy Balb/c mice, plasma", "conditions": "intravenous, 24 h, 89Zr-labelled complex", "tissue uptake": "0.03 %ID/g"}
{"Compound": "N#C[C@@H]1CCCN1C(=O)CNC(=O)c1ccnc2ccc(OCCCN3CCN(C(=O)CCc4ccc(O)c(CN5CCN6CC(=O)[O][Al-]([18F])([O]C(=O)C5)[O]c5ccc(CCC(=O)N7CCN(CCCOc8ccc9nccc(C(=O)NCC(=O)N%10CCC[C@H]%10C#N)c9c8)CC7)cc5C6)c4)CC3)cc12 (stereo partly drawn)", "test system": "BALB/c nude mice, U-87 MG xenograft, stomach", "conditions": "1 h, blocking, together with: DOTA-FAPI-04 40 nmol/mouse co-injected", "tissue uptake": "2.05 ± 0.61 %ID/g"}
{"Compound": "Cc1nc(N)nc2c1C(=O)N[C@@H](c1ccc(F)cc1-c1cccc(OCC[18F])n1)C2", "test": "ex vivo biodistribution", "test system": "C57BL/6 mice, heart", "conditions": "intravenous, 1 MBq, 30 min", "tissue uptake": "0.64 ± 0.07 %ID"}
{"Compound": "O=C(O)CCCOc1ccc([18F])cc1-c1cc(-c2ccccc2C(F)(F)F)n(-c2ccccc2)n1", "test system": "mice, large intestine", "conditions": "intravenous, 60 min", "tissue uptake": "0.4 ± 0.1 %ID/g"}
{"Compound": "CN(O)C(=O)CCC(=O)NCCCN(CCCCN(CCCNC(=O)CCC(=O)N(C)O)C(=O)CCC(=O)N(C)O)C(=O)CCC(=O)N(C)O.[89Zr]", "test": "gamma counting", "test system": "healthy Balb/c mice, muscle", "conditions": "intravenous, 4 h, 89Zr-labelled complex", "tissue uptake": "0.01 %ID/g"}
{"Compound": "CCCC[C@H](NC(=O)CNC(=O)CNC(=O)[C@H](CCCCNC(=O)[C@H](CC(=O)O)NC(=O)C(C)c1ccc(CC(C)C)cc1)NC(=O)CN1CCN(CC(=O)O)CCN(CC(=O)O)CCN(CC(=O)O)CC1)C(=O)N[C@H]1CC(=O)NCCCC[C@@H](C(N)=O)NC(=O)[C@H](Cc2c[nH]c3ccccc23)NC(=O)[C@H](CCCNC(=N)N)NC(=O)[C@@H](Cc2ccccc2)NC(=O)[C@H](Cc2c[nH]cn2)NC1=O (stereo partly drawn) [lutetium-177 labelled]", "test system": "C57 mice, tumour-bearing, liver", "conditions": "intravenous, 0.037 MBq, 24 h", "tissue uptake": "1.58 ± 0.78 %ID/g"}
{"Compound": "N#C[C@@H]1CCCN1C(=O)CNC(=O)c1ccnc2ccc(OCCCN3CCN(C(=O)CCc4ccc5c(c4)CN4CCN(Cc6cc(CCC(=O)O)ccc6O)CC(=O)[O][Al-]([18F])([O]C(=O)C4)[O]5)CC3)cc12 (stereo partly drawn)", "test system": "BALB/c nude mice, U-87 MG xenograft, spleen", "conditions": "1 h, blocking, together with: DOTA-FAPI-04 40 nmol/mouse co-injected", "tissue uptake": "0.29 ± 0.18 %ID/g"}
{"Compound": "COc1ccc(Nc2nc(Nc3ccc(OCCOCCOCC[18F])cc3)ncc2Br)cc1", "test system": "ICR mice, S180 tumour-bearing, kidney", "conditions": "intravenous, 370 kBq, 15 min", "tissue uptake": "3.49 ± 0.12 %ID/g"}
{"Compound": "N#C[C@@H]1CC(F)(F)CN1C(=O)CNC(=O)c1ccnc2c(NC(=O)[C@H](CCCCNC(=O)CCOCCOCCOCCOCCOCCOCCNC(=O)CN3CCN(CC(=O)[O-])CCN(CC(=O)[O-])CCN(CC(=O)[O-])CC3)NC(=O)CCCc3ccc(I)cc3)cccc12.[177Lu+3]", "test": "biodistribution", "test system": "U-87 MG tumour-bearing mice, muscle", "conditions": "48 h", "tissue uptake": "0.19 ± 0.06 %ID/g"}
{"Compound": "O=C([O-])CN1CCN(CC(=O)[O-])CCN(CC(=O)NC[C@H]2CC[C@H](C(=O)N[C@H](Cc3cnc4ccccc4c3)C(=O)NCCCC[C@H](NC(=O)N[C@@H](CCC(=O)O)C(=O)O)C(=O)O)CC2)CCN(CC(=O)[O-])CC1.[64Cu+2]", "test": "ex vivo gamma counting", "test system": "22Rv1 tumour-bearing mice, spleen", "conditions": "intravenous, 0.74 MBq, 6 h post-injection", "tissue uptake": "6.3 %ID/g"}
{"Compound": "CC(C)C[C@H](NC(=O)[C@@H](CCCCNC(=O)[C@@H](Cc1ccccc1)NC(=O)CCCCCCCNC(=O)CN1CCN(CC(=O)O)CCN(CC(=O)O)CCN(CC(=O)O)CC1)NC(=O)[C@H](Cc1ccc(O)cc1)NC(=O)[C@H](CO)NC(=O)[C@H](Cc1c[nH]c2ccccc12)NC(=O)[C@H](Cc1c[nH]cn1)NC(=O)[C@@H]1CCC(=O)N1)C(=O)N[C@@H](CCCNC(=N)N)C(=O)N1CCC[C@H]1C(=O)NCC(N)=O [indium-111 labelled]", "test system": "male athymic nude mice, DU-145 prostate cancer xenograft, intestines", "conditions": "intravenous, 0.037 MBq, 2 h", "tissue uptake": "2.57 ± 0.34 %ID"}
{"Compound": "Cc1cc(C)n(CCN(CCN)CCCCCCNC(=O)[C@@H](N)Cc2c[nH]cn2)n1.[99Tc+].[C-]#[O+].[C-]#[O+].[C-]#[O+]", "test system": "BALB/c nude mice MCF7 xenograft, tumor", "conditions": "intravenous, 15 min", "tissue uptake": "0.35 ± 0.03 %ID/g"}
{"Compound": "CC(C)c1noc(C2CCN(c3ncnc(Nc4ccc(OCC[18F])cc4)c3[N+](=O)[O-])CC2)n1", "test": "ex vivo biodistribution after PET", "test system": "C57BL/J male mice, kidney", "conditions": "60 min", "tissue uptake": "8.42 ± 1.18 %ID/g"}
{"Compound": "COc1ccc2c(c1)C(C)(C)C(/C=C/C1=C(Oc3ccc(C(=O)NCCCCOc4cc(CN(Cc5ccccn5)Cc5ccccn5)cc(CN(Cc5ccccn5)Cc5ccccn5)c4)cc3)C(=C/C=C3/N(CCCCS(=O)(=O)[O-])c4ccc(OC)cc4C3(C)C)CCC1)=[N+]2CCCCS(=O)(=O)[O-].O=[N+]([O-])[O-].O=[N+]([O-])[O-].[99Tc+].[C-]#[O+].[C-]#[O+].[C-]#[O+].[Zn+2]", "test system": "healthy BALB/c mice, urine and bladder", "conditions": "12 h", "tissue uptake": "1.13 %ID/g"}
{"Compound": "O=C(NCC1OC2CCC=CCCC2O1)c1ccc([18F])nc1 (stereo not drawn)", "test system": "healthy female BALB/c nude mice, small intestine", "conditions": "intravenous, 7.4 MBq per mouse, 10 min", "tissue uptake": "11.5 ± 1.7 %ID/g"}
{"Compound": "CC[C@H](C)[C@H](NC(=O)C[C@H](NC(=O)CN1CCN2CCN(CC1)CC(=O)[O][Al]([18F])[O]C(=O)C2)C(=O)O)C(=O)N[C@H]1CCc2cccc3c2N(C1=O)[C@H](C(=O)NCc1cn[nH]n1)C3", "test system": "C57BL/6J mice, MC-38 tumour, anti-PD-1 treated, spleen", "conditions": "0.5 h", "tissue uptake": "0.47 ± 0.11 %ID/g"}
{"Compound": "O=C(NCC1OC2CCC=CCCC2O1)c1ccc(COCCOCCOCC[18F])cc1 (stereo not drawn)", "test system": "healthy female BALB/c nude mice, muscle", "conditions": "intravenous, 7.4 MBq per mouse, 120 min", "tissue uptake": "1.2 ± 0.1 %ID/g"}
{"Compound": "C[N+](C)(CCOCCOCCOCCOCCOCCOCCOCCNC(=S)Nc1ccc(CC2CN(CC(=O)[O-])CCN(CC(=O)[O-])CCN2CC(=O)[O-])cc1)C[c-]1cccc1.[64Cu+2].[Fe+2].c1cc[cH-]c1 (stereo not drawn)", "test": "item: liver", "test system": "nude mice, BxPC-3 tumour", "conditions": "8 h, pretargeting, 72 h lag", "tissue uptake": "0.2 ± 0.1 %ID/g"}
{"Compound": "COc1ccc(Nc2nc(Nc3ccc(OCCOCC[18F])cc3)ncc2Br)cc1", "test system": "ICR mice, S180 tumour-bearing, kidney", "conditions": "intravenous, 370 kBq, 5 min", "tissue uptake": "5.67 ± 0.12 %ID/g"}
{"Compound": "CCCC[C@H](NC(=O)CCCCCCCNC(=O)CN1CCN(CC(=O)O)CCN(CC(=O)O)CC1)C(=O)N[C@H]1CC(=O)NCCCC[C@@H](C(N)=O)NC(=O)[C@H](Cc2c[nH]c3ccccc23)NC(=O)[C@H](CCCNC(=N)N)NC(=O)[C@@H](Cc2ccccc2)NC(=O)[C@H](Cc2c[nH]cn2)NC1=O [fluorine-18 labelled]", "test system": "C57 mice B16-F10 melanoma, lung", "conditions": "intravenous, 0.37 MBq, 0.5 h", "tissue uptake": "3.37 ± 0.61 %ID/g"}
